# Results collected from several papers.
# Each numbered part is a random draw from the data of one study; scales do not carry over between parts.
# UniProt P45985, sequence (whole entry, looked up): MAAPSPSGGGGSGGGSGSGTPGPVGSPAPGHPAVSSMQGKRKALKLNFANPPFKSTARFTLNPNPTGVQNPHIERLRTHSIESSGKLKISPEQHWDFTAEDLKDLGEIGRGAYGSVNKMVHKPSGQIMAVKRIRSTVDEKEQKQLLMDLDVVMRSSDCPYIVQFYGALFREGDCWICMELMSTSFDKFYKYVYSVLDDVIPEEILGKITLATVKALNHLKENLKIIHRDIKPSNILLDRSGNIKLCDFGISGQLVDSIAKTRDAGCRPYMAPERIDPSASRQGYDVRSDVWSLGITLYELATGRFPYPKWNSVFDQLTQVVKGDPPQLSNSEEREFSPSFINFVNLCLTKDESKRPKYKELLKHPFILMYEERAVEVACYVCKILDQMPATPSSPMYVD
# UniProt O75676, sequence (whole entry, looked up): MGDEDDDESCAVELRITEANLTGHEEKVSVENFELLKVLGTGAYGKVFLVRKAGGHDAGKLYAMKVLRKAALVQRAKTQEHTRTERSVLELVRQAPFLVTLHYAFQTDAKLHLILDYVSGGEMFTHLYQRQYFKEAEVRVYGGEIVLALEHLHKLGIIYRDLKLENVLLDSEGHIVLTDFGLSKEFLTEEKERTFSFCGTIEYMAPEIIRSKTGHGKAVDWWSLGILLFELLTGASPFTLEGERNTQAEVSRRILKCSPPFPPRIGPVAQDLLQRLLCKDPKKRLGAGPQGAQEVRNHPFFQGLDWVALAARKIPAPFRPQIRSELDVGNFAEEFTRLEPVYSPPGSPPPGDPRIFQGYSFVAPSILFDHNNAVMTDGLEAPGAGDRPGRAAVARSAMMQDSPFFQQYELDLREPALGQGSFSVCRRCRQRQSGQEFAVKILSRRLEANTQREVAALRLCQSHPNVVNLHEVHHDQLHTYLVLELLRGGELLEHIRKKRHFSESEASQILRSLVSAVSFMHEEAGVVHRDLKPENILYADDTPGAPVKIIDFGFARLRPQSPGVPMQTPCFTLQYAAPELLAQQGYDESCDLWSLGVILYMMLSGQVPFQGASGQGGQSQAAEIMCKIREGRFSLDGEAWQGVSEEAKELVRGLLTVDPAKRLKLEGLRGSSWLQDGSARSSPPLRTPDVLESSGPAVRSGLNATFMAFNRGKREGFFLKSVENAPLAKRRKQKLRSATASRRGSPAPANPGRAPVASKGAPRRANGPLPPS
# UniProt Q14680, sequence (whole entry, looked up): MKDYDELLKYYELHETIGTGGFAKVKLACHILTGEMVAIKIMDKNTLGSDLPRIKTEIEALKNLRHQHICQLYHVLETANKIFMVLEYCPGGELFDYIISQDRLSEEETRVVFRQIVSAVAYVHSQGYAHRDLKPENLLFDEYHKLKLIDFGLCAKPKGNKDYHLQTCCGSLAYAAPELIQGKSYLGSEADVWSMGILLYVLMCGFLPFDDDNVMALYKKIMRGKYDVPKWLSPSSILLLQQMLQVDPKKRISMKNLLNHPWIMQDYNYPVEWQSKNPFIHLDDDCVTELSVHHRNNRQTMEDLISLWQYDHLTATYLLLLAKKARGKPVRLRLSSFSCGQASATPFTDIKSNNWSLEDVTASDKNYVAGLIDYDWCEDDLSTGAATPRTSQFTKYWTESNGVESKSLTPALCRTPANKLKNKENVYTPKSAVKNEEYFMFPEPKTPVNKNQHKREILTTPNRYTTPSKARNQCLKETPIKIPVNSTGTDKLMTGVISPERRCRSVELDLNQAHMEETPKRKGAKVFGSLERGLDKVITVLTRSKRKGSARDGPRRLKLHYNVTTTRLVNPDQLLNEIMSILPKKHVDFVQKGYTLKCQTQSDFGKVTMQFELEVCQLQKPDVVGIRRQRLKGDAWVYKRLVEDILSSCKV
# UniProt P08631, sequence (whole entry, looked up): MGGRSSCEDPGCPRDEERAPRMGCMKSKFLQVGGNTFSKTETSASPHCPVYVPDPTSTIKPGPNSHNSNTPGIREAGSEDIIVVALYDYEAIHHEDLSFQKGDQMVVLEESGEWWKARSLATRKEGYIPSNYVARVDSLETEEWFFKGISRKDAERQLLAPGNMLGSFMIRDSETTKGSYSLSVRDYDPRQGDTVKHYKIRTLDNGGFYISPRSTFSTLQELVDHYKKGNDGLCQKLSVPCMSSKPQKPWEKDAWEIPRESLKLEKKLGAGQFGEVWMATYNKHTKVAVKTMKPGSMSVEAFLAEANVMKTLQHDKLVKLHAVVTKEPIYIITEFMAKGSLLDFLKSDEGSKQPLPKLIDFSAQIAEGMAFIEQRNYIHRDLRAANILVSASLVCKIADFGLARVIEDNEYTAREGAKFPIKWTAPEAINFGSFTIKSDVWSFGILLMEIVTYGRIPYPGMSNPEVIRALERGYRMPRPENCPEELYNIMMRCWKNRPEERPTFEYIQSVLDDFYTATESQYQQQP
# UniProt Q9UQB9, sequence (whole entry, looked up): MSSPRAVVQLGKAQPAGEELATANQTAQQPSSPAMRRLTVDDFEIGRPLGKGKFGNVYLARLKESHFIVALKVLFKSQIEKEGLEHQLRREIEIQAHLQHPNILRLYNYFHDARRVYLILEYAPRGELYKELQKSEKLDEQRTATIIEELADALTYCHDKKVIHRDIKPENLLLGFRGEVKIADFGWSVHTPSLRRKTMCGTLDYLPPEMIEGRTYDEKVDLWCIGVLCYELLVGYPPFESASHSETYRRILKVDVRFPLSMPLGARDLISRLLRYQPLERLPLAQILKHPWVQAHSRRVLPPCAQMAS
# UniProt Q02750, sequence (whole entry, looked up): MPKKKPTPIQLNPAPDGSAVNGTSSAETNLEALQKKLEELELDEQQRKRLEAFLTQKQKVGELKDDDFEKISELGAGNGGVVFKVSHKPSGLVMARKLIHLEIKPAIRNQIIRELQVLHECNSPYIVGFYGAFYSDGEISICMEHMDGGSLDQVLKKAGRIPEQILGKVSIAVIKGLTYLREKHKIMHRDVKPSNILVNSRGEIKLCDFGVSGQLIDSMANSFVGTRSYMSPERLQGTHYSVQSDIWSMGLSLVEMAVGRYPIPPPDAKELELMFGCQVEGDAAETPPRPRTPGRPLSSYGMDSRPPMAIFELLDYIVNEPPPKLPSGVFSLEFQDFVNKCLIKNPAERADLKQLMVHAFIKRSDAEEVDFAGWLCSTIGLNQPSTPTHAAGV
# UniProt Q99759, sequence (whole entry, looked up): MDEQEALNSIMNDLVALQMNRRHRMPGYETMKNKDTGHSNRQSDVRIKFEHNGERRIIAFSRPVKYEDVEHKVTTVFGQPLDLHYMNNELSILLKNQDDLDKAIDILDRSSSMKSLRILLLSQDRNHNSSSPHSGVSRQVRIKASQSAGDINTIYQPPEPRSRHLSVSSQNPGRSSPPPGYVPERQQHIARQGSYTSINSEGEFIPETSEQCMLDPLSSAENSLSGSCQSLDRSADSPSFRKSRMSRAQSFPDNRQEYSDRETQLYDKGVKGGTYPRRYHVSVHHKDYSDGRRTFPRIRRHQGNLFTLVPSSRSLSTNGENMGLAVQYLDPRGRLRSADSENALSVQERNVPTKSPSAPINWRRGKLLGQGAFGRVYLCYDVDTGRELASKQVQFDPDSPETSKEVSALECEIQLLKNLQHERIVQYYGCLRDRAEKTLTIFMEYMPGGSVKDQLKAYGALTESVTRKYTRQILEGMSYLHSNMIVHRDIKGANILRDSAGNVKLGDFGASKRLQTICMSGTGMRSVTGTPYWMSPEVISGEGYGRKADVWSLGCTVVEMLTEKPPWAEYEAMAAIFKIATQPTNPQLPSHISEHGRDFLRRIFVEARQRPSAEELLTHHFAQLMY
# UniProt Q6P3R8, sequence (whole entry, looked up): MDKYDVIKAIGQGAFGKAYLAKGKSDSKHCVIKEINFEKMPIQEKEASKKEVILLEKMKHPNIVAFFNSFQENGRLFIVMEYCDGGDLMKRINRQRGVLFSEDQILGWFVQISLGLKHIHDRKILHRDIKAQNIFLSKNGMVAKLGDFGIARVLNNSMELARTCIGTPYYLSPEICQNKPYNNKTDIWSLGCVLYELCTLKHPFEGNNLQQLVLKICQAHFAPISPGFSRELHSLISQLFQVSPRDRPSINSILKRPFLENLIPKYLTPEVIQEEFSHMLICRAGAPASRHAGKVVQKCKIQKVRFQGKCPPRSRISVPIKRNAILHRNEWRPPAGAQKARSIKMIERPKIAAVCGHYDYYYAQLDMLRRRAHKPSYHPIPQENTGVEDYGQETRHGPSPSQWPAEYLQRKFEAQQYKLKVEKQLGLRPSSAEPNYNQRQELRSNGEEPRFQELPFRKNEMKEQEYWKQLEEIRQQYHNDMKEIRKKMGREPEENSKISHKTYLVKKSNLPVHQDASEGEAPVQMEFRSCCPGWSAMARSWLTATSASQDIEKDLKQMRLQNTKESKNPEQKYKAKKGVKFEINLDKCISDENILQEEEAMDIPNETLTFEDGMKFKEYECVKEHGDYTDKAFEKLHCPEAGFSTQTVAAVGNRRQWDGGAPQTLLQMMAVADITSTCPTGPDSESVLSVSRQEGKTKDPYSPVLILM

# Study 1 — technique: phase 2a trial; species: idiopathic pulmonary fibrosis patients
# Compound: CC(C)n1cnc(-c2ccc(F)cc2)c1-c1ncc(C(=O)Nc2ccc(N3CCN(C)CC3)cc2)[nH]1
refers to,dose,notes,adverse event incidence
chronic gastritis,30 mg once daily,grade 1,0%
immunoglobulins increased,30 mg once daily,grade 3,0%
carotid intima-media thickening,60 mg once daily,grade 1,0%
weight decreased,dose not given,"grade 4, all arms pooled",0%
arthritis,dose not given,"grade 2, all arms pooled",0%
general and administration site disorders,60 mg once daily,grade 3,0%
appendicitis,60 mg once daily,grade 2,0%
weight decreased,60 mg once daily,grade 2,0%
carotid intima-media thickening,dose not given,"grade 2, all arms pooled",0%
arthritis,30 mg once daily,grade 2,0%

# Study 2 — read-out: enzyme activity; action: inhibitor; concentration: 0.5 µM; baseline: control
# Target: Cyclin-dependent kinase 3, with cyclin E (CDK3, Homo sapiens, UniProt Q00526)
# UniProt Q00526, sequence (whole entry, looked up): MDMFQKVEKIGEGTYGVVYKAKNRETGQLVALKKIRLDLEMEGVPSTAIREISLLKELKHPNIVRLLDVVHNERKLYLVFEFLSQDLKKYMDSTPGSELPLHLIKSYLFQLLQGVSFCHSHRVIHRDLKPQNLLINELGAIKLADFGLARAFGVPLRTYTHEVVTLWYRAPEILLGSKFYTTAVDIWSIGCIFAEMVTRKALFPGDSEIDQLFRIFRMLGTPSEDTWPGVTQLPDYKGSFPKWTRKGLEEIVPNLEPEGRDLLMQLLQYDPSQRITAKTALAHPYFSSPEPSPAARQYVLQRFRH
SMILES,remaining activity
Cc1cc2ncc(-c3ccccc3)nc2cc1C,96.7%
CN(C)C[C@H]1CCn2c(c(C3=C(c4cn(C)c5ccccc45)C(=O)NC3=O)c3ccccc32)C1,62.4%
O=C1c2ccccc2-[n+]2ccc3c([nH]c4ccccc43)c21,80.1%
Ic1cccc(CSc2nnc(-c3ccncc3)o2)c1,87.4%
CCN(CC)CCNC(=O)c1c(C)[nH]c(/C=C2\C(=O)Nc3ccc(F)cc32)c1C,91%
c1ccc(-c2cnc(Nc3ccc(OCCN4CCCC4)cc3)s2)cc1,97.6%
Cc1nc2cc3nc(-c4cccs4)cnc3cc2n1C,93.6%
Cc1cn(-c2cc(NC(=O)c3ccc(C)c(Nc4nccc(-c5cccnc5)n4)c3)cc(C(F)(F)F)c2)cn1,95.2%
O=C1C(Cl)=C(N2C(=O)CCC2=O)C(=O)c2ccccc21,102%
CCN(CC)CCNC(=O)c1c(C)[nH]c(/C=C2\C(=O)Nc3ccc(Cl)cc32)c1C,88.3%
O=c1cc(-c2cccc3c2Sc2ccccc2S3)oc(N2CCOCC2)c1,101%
COc1cc2ncnc(Nc3cccc(Cl)c3)c2cc1OC,95.2%
Nc1cccc(-c2cc3c(Oc4cccc(O)c4)ncnc3[nH]2)c1,82.3%
CCN(CC)C(=O)c1ccc(Nc2nc(OCC3CCCCC3)c3[nH]cnc3n2)cc1,90.4%
C[C@@H]1CCN(C(=O)CC#N)C[C@@H]1N(C)c1ncnc2[nH]ccc12,92.3%
O=C1c2ccccc2-c2n[nH]c3cccc1c23,94.3%
O=C(Nc1cccc(Nc2nccc(Nc3cccc(C(F)(F)F)c3)n2)c1)C1CC1,98.1%
Cn1nc2c3c(cccc31)C(=O)c1ccccc1-2,87.5%
COc1cc2c(cc1OC)-c1[nH]nc(Nc3cccc(F)c3)c1C2,95.4%
c1ccc(-c2[nH]ncc2-c2ccnc3ccccc23)nc1,94.2%
O=C(NC(NC(=S)Nc1ccc(F)c([N+](=O)[O-])c1)C(Cl)(Cl)Cl)C(c1ccccc1)c1ccccc1 (centres unmarked),105%
N#Cc1c(NC(=O)c2cccc3ccccc23)sc2c1CCCC2,99.2%
CCOc1nc(NC(=O)Cc2cc(OC)ccc2OC)cc(N)c1C#N,97.7%
COc1cc2ncnc(Nc3ccc(O)c(Br)c3)c2cc1OC,93.5%

# Study 3 — species: mouse; sample: microsomes or S9; concentration: 2 µM; time: 0.5 h
Structure (SMILES),remaining compound [%]
Cc1ccc(/C=C/c2onc(C)c2S(=O)(=O)N2CCC(C(=O)Nc3cccnc3)CC2)cc1,94.2
COC(=O)C1(C)Cc2ccc(Cl)cc2C(=O)O1 (centres unmarked),2.34
COc1c(F)c(F)cc2c(=O)c(C(=O)NCCCN3CCCC3=O)cn(C3CC3)c12,27.6
CCC1=NN2C(=NC(C(=O)O)=CC2c2ccc(O)cc2)N1 (centres unmarked),91.9
CCOc1ccc(CCNC(=O)Cn2cccc2C(=O)c2ccccc2C)cc1OCC,0.783
Cc1n[nH]cc1CNC(=O)c1ccc(Cn2c(=O)c3cccn3c3cccnc32)o1,2.16
Cc1ccc(N2C(=O)C(=N)c3c2sc(C)c3C)cc1,52
Oc1cc(-c2ccc(-c3ccc(Br)cc3)cc2)nn1-c1ccccn1,69.3
O=C(O)c1ccc(-c2nc3scc(-c4ccc(F)cc4)c3c(=O)[nH]2)cc1,> 99
NC(=O)[C@@H]1C[C@@H](F)CN1Cc1cc2c(cc1Br)OCO2,0.102

# Study 4 — read-out: cell-free assay; technique: competition with immobilised ligand; concentration: 1 µM
# Compound: O=C(O)c1cc(-c2ccc(C3CCNCC3)cc2)c2ccc(-c3ccc(C(F)(F)F)cc3)cc2c1
target,remaining binding [%]
"Tyrosine-protein kinase ABL1, non-phosphorylated (ABL1, Homo sapiens, UniProt P00519, F317L)",100
"Ribosomal protein S6 kinase alpha-4, N-terminal kinase domain (RPS6KA4, Homo sapiens, UniProt O75676)",100
"MAP2K1 (Homo sapiens, UniProt Q02750)",100
"CHUK (Homo sapiens, UniProt O15111)",87
"MAP3K3 (Homo sapiens, UniProt Q99759)",83
"Aurora kinase C (AURKC, Homo sapiens, UniProt Q9UQB9)",95
"LIM domain kinase 2 (LIMK2, Homo sapiens, UniProt P53671)",100
"HCK (Homo sapiens, UniProt P08631)",100
"NEK5 (Homo sapiens, UniProt Q6P3R8)",100
"MAP2K4 (Homo sapiens, UniProt P45985)",100
"MAP3K19 (Homo sapiens, UniProt Q56UN5)",100
"WNK3 (Homo sapiens, UniProt Q9BYP7)",100
"EGFR (Homo sapiens, UniProt P00533, del747-750/T751S)",100
"FLT3 (Homo sapiens, UniProt P36888, D835V/ITD)",100
"MELK (Homo sapiens, UniProt Q14680)",98

# Some of these lines once more (study 4):
target,remaining binding [%]
"MAP2K1 (Homo sapiens, UniProt Q02750)",100
"CHUK (Homo sapiens, UniProt O15111)",87
"MAP3K3 (Homo sapiens, UniProt Q99759)",83
"Aurora kinase C (AURKC, Homo sapiens, UniProt Q9UQB9)",95
"LIM domain kinase 2 (LIMK2, Homo sapiens, UniProt P53671)",100
"HCK (Homo sapiens, UniProt P08631)",100
"NEK5 (Homo sapiens, UniProt Q6P3R8)",100
"MAP2K4 (Homo sapiens, UniProt P45985)",100
"MAP3K19 (Homo sapiens, UniProt Q56UN5)",100
